# Results collected from several papers.
# A part holds a random share of what one study measured. Changes are numbered by the printed parent chain.

# Sample 1
# Target: Ras GTPase-activating protein-binding protein 1, C-terminal RGG region (G3BP1, Homo sapiens, UniProt Q13283)
# UniProt Q13283, sequence (whole entry, looked up): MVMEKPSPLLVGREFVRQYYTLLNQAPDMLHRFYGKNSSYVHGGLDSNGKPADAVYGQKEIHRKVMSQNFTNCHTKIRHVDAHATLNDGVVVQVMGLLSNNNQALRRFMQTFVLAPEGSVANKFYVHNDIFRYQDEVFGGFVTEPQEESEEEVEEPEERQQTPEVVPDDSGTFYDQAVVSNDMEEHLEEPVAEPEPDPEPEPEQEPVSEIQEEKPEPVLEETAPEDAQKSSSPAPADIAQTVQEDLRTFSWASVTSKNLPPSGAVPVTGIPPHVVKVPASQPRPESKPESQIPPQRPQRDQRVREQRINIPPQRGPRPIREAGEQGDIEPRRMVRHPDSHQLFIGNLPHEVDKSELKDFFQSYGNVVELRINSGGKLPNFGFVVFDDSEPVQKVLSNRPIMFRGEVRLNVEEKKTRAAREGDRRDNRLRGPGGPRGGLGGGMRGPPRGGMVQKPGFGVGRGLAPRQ
# Technique: RNA Bind-n-Seq
# Molecule type: RNA
# Matrix: in vitro
# Tested at: 1 µM
# Setting: whole 134-nt RNA, ends assumed
# Together with: 150 mM KCl
# Relative to: input library
# Reading: higher = stronger binding
# All sequences stand within: GGGAGUUCUACAGUCCGACGAUC … UGGAAUUCUCGGGUGUCAAGG
Sequence,log2 enrichment
AGUCCUGUGCUACACAUCGUAUGUACCGAAUCGGUUUUUGGUUUUUGGGUUUUUGGGAAAGUAUUAUGUUACGCCGUUCGGAUCUGCACU,-1.52
CAAGUCCUGUGCUACACAUCGUAUGUACCGAAUCGGGGCCCGGCCCGGGGCCCGGGAAAGUAUUAUGUUACGCCGUUCGGAUCUGCACUU,-2.13
AAGUCCUGUGCUACACAUCGUAUGUACCGAAUCGGGCCCCGGGCCCCGGCCCCGGGGAAAGUAUUAUGUUACGCCGUUCGGAUCUGCACU,-2.3
UCAAGUCCUGUGCUACACAUCGUAUGUACCGAAUCGGGUUGGGUUGGGGUUGGGAAAGUAUUAUGUUACGCCGUUCGGAUCUGCACUUCC,2.38
UCAAGUCCUGUGCUACACAUCGUAUGUACCGAAUCGGAAAAAGGUGGAAAAAGGAAAGUAUUAUGUUACGCCGUUCGGAUCUGCACUUCC,-1.4
AAGUCCUGUGCUACACAUCGUAUGUACCGAAUCGGGGUUUUGGGUUUUGGUUUUGGGAAAGUAUUAUGUUACGCCGUUCGGAUCUGCACU,-1.26
UCAAGUCCUGUGCUACACAUCGUAUGUACCGAAUCGGAAAAAAAGGUGGUUUGGAAAGUAUUAUGUUACGCCGUUCGGAUCUGCACUUCC,-1.43
CCUCAAGUCCUGUGCUACACAUCGUAUGUACCGAAUCGGGGAAGGAAGGAAGGAAAGUAUUAUGUUACGCCGUUCGGAUCUGCACUUCCA,-1.34

# Sample 2
# Target: 5-hydroxytryptamine receptor 2C (HTR2C, Homo sapiens, UniProt P28335)
# UniProt P28335, sequence (whole entry, looked up): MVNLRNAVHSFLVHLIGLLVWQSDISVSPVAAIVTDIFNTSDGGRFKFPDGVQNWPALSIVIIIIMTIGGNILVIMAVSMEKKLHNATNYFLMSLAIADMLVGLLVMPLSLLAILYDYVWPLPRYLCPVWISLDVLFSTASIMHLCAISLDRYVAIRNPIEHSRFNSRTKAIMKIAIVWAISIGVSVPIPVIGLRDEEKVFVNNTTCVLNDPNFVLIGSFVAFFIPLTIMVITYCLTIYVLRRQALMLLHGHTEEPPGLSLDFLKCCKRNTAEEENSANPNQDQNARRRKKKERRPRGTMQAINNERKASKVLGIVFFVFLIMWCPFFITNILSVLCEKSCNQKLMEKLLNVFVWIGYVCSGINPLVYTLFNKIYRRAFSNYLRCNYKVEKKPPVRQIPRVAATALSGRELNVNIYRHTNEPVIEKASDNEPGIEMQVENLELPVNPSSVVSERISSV
# Read-out: ligand displacement
# Tested at: 10 µM
SMILES,inhibition [%]
NS(=O)(=O)c1cc(NC(=O)Cc2ccccc2)ccc1Oc1cccc(Cl)c1,55.4
CCC(F)(F)c1cc(N2CCC(S(C)(=O)=O)CC2)nc2sc(C(N)=O)c(N)c12,-5.41
CS(=O)(=O)N1CCCC(NC(=O)[C@H](CCC2CCCCC2)NC(=O)c2ccc(CNC(=O)c3cnc4ccccn34)cc2)C1 (stereo partly drawn),8.24
COCc1nc2cnc3cc(-c4c(C)noc4C)c(OC[C@H]4CCNC4)cc3c2n1[C@H](C)c1ccccc1,-0.02

# Sample 3
# Target: Sal-like protein 4, full length isoform A (SALL4, Homo sapiens, UniProt Q9UJQ4, residues 1-1053)
# UniProt Q9UJQ4, sequence (whole entry, looked up): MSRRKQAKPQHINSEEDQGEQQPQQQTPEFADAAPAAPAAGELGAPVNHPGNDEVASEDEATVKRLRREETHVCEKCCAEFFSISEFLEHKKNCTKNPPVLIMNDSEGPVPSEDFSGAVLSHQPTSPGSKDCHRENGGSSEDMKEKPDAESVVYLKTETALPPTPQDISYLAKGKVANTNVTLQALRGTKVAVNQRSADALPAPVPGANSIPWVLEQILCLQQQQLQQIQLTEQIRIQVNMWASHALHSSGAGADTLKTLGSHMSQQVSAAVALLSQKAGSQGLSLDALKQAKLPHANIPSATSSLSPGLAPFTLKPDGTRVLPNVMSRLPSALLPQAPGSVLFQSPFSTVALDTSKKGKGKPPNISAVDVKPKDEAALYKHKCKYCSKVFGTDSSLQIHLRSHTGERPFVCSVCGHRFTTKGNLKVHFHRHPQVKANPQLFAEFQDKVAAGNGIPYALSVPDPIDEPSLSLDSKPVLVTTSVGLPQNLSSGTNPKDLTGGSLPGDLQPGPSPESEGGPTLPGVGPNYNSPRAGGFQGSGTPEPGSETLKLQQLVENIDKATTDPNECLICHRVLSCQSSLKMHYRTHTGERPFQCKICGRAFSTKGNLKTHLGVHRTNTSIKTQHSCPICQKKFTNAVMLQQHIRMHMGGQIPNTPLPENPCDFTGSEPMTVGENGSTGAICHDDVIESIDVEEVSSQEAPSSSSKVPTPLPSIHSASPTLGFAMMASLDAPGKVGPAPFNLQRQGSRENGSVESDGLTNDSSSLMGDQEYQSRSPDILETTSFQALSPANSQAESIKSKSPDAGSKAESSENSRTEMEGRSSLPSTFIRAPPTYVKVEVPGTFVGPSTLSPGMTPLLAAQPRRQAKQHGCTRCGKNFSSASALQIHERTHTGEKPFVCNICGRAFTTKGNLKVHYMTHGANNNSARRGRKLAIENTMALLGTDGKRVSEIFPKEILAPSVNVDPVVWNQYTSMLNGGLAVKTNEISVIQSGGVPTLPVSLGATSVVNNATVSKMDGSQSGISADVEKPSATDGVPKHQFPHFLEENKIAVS
# Technique: universal PBM
# Molecule type: double-stranded DNA, one strand shown
# Matrix: in vitro
# Tested at: 600 nM
# Setting: 8-mer, flanks averaged, mean of replicates
# Reading: higher = stronger binding
Sequence,E-score
ATCACAAA,0.191
AAGTCCCG,-0.2
TATCTAAA,0.261
ACGCGCTA,0.0089
AGGAAGTG,-0.0712
ACTGGTGC,-0.251
CGCGAGCG,-0.203
AACGATTG,0.235

# Sample 4
# Target: vanadate, free oxyanion
# Technique: microfluidic competitive inhibition
# Matrix: in vitro, cell-free expressed
# Tested at: not given
# Setting: derived from inhibition constants, unchanged parent 676 nM
# Reading: lower = stronger binding
# Starting sequence: PafA, mature enzyme, eGFP fusion (Elizabethkingia meningoseptica, UniProt Q9KJX5); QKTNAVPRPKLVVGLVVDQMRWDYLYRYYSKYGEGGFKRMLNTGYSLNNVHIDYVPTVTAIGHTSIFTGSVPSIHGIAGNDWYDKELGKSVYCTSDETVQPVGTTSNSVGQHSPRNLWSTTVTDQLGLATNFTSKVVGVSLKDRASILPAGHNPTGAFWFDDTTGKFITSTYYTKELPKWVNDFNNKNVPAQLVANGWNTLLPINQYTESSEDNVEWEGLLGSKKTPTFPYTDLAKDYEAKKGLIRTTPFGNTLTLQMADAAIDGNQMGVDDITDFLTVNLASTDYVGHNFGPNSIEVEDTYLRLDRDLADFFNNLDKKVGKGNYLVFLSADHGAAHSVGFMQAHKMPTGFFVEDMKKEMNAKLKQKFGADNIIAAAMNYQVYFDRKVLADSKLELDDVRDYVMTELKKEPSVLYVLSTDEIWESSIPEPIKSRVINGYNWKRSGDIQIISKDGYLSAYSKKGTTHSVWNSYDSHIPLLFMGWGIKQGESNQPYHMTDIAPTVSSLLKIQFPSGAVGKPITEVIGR
Variant,oxyanion analog dissociation constant
N379V,1.05 µM
N315G,618 nM
I296V,698 nM
K322V,782 nM

# Excerpt of the above (sample 1):
Sequence,log2 enrichment
UCAAGUCCUGUGCUACACAUCGUAUGUACCGAAUCGGGUUGGGUUGGGGUUGGGAAAGUAUUAUGUUACGCCGUUCGGAUCUGCACUUCC,2.38
CAAGUCCUGUGCUACACAUCGUAUGUACCGAAUCGGGGCCCGGCCCGGGGCCCGGGAAAGUAUUAUGUUACGCCGUUCGGAUCUGCACUU,-2.13
UCAAGUCCUGUGCUACACAUCGUAUGUACCGAAUCGGAAAAAAAGGUGGUUUGGAAAGUAUUAUGUUACGCCGUUCGGAUCUGCACUUCC,-1.43
